Measured values of several laboratories.
A part holds a random share of what one study measured.
Sequence of UniProt P9WI81 (whole entry, looked up): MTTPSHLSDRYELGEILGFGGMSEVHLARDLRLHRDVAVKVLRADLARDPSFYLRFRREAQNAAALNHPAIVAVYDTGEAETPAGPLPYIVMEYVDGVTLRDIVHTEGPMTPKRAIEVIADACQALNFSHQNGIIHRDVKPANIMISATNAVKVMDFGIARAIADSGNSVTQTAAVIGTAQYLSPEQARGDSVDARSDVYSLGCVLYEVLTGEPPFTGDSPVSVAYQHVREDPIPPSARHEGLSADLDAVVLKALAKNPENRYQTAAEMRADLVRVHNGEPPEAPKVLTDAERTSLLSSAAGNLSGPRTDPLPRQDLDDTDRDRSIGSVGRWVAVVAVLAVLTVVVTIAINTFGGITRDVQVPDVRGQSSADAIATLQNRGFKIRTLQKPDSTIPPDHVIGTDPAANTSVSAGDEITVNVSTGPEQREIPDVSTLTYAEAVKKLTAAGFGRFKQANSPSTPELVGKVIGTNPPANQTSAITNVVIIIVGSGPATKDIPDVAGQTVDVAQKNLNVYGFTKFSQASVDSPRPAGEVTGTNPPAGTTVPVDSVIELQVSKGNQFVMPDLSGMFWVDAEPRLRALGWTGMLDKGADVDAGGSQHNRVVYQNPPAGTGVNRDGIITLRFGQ

Sample 1 — observed: enzyme activity; action: inhibitor; concentration: 10 µM; measurement: inhibition
Target: Calcium/calmodulin-dependent protein kinase type II subunit alpha (CAMK2A, Homo sapiens, UniProt Q9UQM7)
Sequence of UniProt Q9UQM7 (whole entry, looked up): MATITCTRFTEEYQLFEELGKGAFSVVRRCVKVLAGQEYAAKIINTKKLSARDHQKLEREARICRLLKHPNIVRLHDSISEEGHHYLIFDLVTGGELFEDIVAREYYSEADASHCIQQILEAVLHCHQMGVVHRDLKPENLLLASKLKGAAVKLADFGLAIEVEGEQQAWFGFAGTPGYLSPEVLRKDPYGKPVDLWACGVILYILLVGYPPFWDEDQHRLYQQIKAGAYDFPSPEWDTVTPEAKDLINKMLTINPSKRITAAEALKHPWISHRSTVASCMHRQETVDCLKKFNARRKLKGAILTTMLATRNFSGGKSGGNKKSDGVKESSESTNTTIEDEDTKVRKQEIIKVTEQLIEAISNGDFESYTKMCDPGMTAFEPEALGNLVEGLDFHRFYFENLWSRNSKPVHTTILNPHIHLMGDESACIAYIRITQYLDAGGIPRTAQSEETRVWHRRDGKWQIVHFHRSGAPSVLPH
SMILES = CC(=O)c1ccc2ccccc2c1; result = -40%
SMILES = O=C(O)CCCC(O)C(=O)O (stereo not shown); result = 1%
SMILES = CCOCCn1c(C2CCN(CCc3ccc(C(C)(C)C(=O)O)cc3)CC2)nc2ccccc21; result = -7%
SMILES = CC(C)[C@H](C)[C@@H](O)[C@H](O)[C@@H](C)[C@H]1CC[C@H]2[C@@H]3COC(=O)[C@H]4C[C@H](O)[C@H](O)C[C@]4(C)[C@H]3CC[C@]12C; result = -15%
SMILES = Nc1ccn([C@@H]2O[C@H](COP(=O)(O)O)[C@@H](O)[C@H]2O)c(=O)n1; result = 25%
SMILES = O=C1O[C@H]([C@@H](O)CO)C(O)=C1OP(=O)(O)O; result = 2%
SMILES = COc1cc2oc(=O)ccc2c(OC)c1C[C@@H](O)C(C)(C)O; result = -29%
SMILES = CN[C@@H]1[C@@H](O[C@H]2O[C@H](CO)[C@@H](N)[C@H](O)[C@H]2O)O[C@H]2C[C@@H](N)[C@@H](O[C@H]3[C@H](O)[C@@H](O)[C@H](N)C[C@@H]3N)O[C@@H]2[C@@H]1O; result = -19%

Sample 2 — species: mouse; medium: microsomes or S9; concentration: 2 µM; time: 0.5 h; measurement: remaining compound
SMILES = CC1=C2C(=NC3=C(C(=O)CCC3)C2c2ccc(C#N)cc2)N(c2nc(C)cc(C)n2)N1 (stereo not shown); result = 59%
SMILES = CCCOc1ccc2c(c1)CNC(CCCCN)C(=O)N2CCc1ccc(OC)cc1 (stereo not shown); result = 88.8%
SMILES = CS(=O)(=O)N1CCN(CCCOc2ccc3c(c2)CN(Cc2cccnc2)C3=O)CC1; result = 58%
SMILES = COCCOCC(=O)NCC1CCCCC(=O)N1 (stereo not shown); result = 96.2%
SMILES = CN(Cc1ccccc1)c1nc2ccccc2n1CC(O)COc1ccccc1 (stereo not shown); result = 3.72%
SMILES = CC(C)(C)OC(=O)N[C@@H](CC(=O)N1CCCN(S(C)(=O)=O)CC1)Cc1cc(F)c(F)cc1F; result = 0.435%
SMILES = NCCO[C@H]1C[C@@H](O)C12CCN(CC(c1ccccc1)c1ccccc1)CC2; result = 74.9%
SMILES = O=C(O)/C=C/c1ccc2c(c1)N(Cc1ccccc1)C(=O)CO2; result = 63.7%

Sample 3 — organism: Sarcocystis neurona; observed: parasite growth; concentration: 10 µM; time: 96 h; measurement: inhibition
Compound = COc1c(N2CCNC(C)C2)c(F)cc2c(=O)c(C(=O)O)cn(C3CC3)c12 (stereo not shown); result = -5.6%
Compound = CCCCNC(=O)NS(=O)(=O)c1ccc(C)cc1; result = -18.1%
Compound = COc1ccccc1N1CCN(CC(O)COc2cccc3ccccc23)CC1 (stereo not shown); result = -12.2%
Compound = Cc1nnc(SCC2=C(C(=O)O)N3C(=O)[C@@H](NC(=O)Cn4cnnn4)[C@H]3SC2)s1; result = -17.6%
Compound = CC(C(=O)O)c1ccc(-c2ccccc2)c(F)c1 (stereo not shown); result = -9%
Compound = O=C1CCC(N2C(=O)c3ccccc3C2=O)C(=O)N1 (stereo not shown); result = -15.9%
Compound = CCn1cc(C(=O)O)c(=O)c2cc(F)c(N3CCNCC3)cc21; result = -12.6%
Compound = COc1ccc(-c2oc3c(CC=C(C)C)c(O[C@@H]4O[C@H](CO)[C@@H](O)[C@H](O)[C@H]4O)cc(O)c3c(=O)c2O[C@@H]2O[C@@H](C)[C@H](O)[C@@H](O)[C@H]2O)cc1; result = -7.7%

Other studies, line by line
Structure (SMILES) = O=C(O)c1cc(-c2ccc(C3CCNCC3)cc2)c2ccc(-c3ccc(C(F)(F)F)cc3)cc2c1; target = Serine/threonine-protein kinase PknB (pknB, Mycobacterium tuberculosis, UniProt P9WI81); observed = cell-free assay; method = competition with immobilised ligand; concentration = 1 µM; measurement = remaining binding; result = 100%
